{"data": "Assay results gathered from unrelated publications", "note": "Numbered parts are unrelated; each lists some results of a single study."}
{"data": "Series 1", "target": "Phosphate system positive regulatory protein PHO4, full length, GST-tagged (PHO4, Saccharomyces cerevisiae, UniProt P07270, residues 1-312)", "method": "competition protein-binding microarray", "molecule type": "double-stranded DNA, one strand shown", "medium": "in vitro", "tested at": "2 µM", "setting": "whole 60-bp probe, lowest competitor level", "together with": "Cbf1 competitor, 0.05 µM", "reading": "higher = stronger binding", "Construct (chain)": "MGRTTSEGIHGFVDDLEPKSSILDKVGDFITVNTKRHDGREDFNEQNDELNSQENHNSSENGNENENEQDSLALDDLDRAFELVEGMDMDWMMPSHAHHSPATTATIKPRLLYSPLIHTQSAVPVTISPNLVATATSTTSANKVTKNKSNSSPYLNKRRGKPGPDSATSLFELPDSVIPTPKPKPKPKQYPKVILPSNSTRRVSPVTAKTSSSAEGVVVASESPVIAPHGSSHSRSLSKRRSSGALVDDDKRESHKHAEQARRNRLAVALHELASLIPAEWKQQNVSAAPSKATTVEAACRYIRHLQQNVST"}
{"Oligonucleotide": "CAAAACGTTCGTTTCTGCGTGCCAGTCTTCTCCACTGTCTTGATTCGCTTGACGCTGCTG", "fluorescence intensity [a.u.]": 7790}
{"Oligonucleotide": "CTAACGAAGGTTTGGCTGGTGGGTGACAAGCCAAGTGTCTTGATTCGCTTGACGCTGCTG", "fluorescence intensity [a.u.]": 3010}
{"Oligonucleotide": "CATACCCAACCTTGCCATGTGGGTGAAGATATTTGTGTCTTGATTCGCTTGACGCTGCTG", "fluorescence intensity [a.u.]": 10100}
{"data": "Series 2", "target": "Histone acetyltransferase KAT6A, winged helix 1, GST fusion (KAT6A, Homo sapiens, UniProt Q92794, residues 1-85)", "method": "protein binding microarray", "molecule type": "double-stranded DNA, one strand shown", "medium": "in vitro", "tested at": "not given", "setting": "8-mer, flanks averaged, mean of 2 arrays, mostly near background", "relative to": "not given", "reading": "higher = stronger binding", "Residues (chain)": "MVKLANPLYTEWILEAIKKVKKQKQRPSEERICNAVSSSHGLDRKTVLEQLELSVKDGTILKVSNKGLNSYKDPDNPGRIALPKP"}
{"Oligonucleotide": "GGCGGTTA", "E-score": 0.268}
{"Oligonucleotide": "ATTCCGAG", "E-score": -0.013}
{"Oligonucleotide": "CCTTGGGC", "E-score": 0.0933}
{"Oligonucleotide": "GCCATGCA", "E-score": -0.151}
{"data": "Series 3", "target": "Max-binding protein MNT, bHLH-zipper, MAX partner unstated (MNT, Homo sapiens, UniProt Q99583, residues 220-300)", "method": "protein-binding microarray", "molecule type": "double-stranded DNA, one strand shown", "medium": "in vitro", "tested at": "not given", "setting": "k-mer, scored over probes, only values ≥0.25", "reading": "higher = stronger binding", "Residues (chain)": "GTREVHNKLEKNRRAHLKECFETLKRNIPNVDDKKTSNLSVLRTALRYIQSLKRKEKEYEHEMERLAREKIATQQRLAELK"}
{"Oligonucleotide": "CGTGTACA", "E-score": 0.306}
{"Oligonucleotide": "CGTGGCGC", "E-score": 0.304}
{"Oligonucleotide": "CGGGCACA", "E-score": 0.28}
{"Oligonucleotide": "ATGCACAC", "E-score": 0.299}
{"data": "Further values, each from its own experiment"}
{"Molecule": "PhoQ, residues 284 288 289 292 302 303 SSLVEF", "target": "PhoP, residues 12 14 15 18 19 LHHVQ (Escherichia coli, UniProt P23836)", "test": "Sort-seq, refers to: YFP reporter", "system": "E. coli", "conditions": "PhoQ-PhoP variant library, together with: 10 µM Mg2+", "scale": "relative to: high Mg2+ state, higher = stronger signaling", "measurement": "fold induction", "value": 4.85}
{"note": "Excerpt of the above (series 2):"}
{"Oligonucleotide": "CCTTGGGC", "E-score": 0.0933}
{"Oligonucleotide": "ATTCCGAG", "E-score": -0.013}
